# Results collected from several papers.
# Numbered parts are unrelated; each lists some results of a single study. Changes are numbered by the printed parent chain.

# Series 1
# Target: Interferon regulatory factor 5, full length, phosphomimetic (IRF5, Homo sapiens, UniProt Q13568-2, residues 1-514, K96S/S451D/S453D/S456D/S462D)
# Method: protein-binding microarray
# Form: double-stranded DNA, one strand shown
# Medium: in vitro
# Tested at: 250 nM
# Notes: 60-bp whole probe
# Added: salmon DNA 0.4 mg/ml
# Relative to: random background probes
# Direction: higher = stronger binding
# All sequences stand within: GCCTAGCAC … GTCTTGATTCGCTTGACGCTGCTG
Sequence,log fluorescence
GACGGACTGGGTATCGGTACGTGCTAG,2.42 z-score
GCCGGTCTCCTTATCCTGACGTGCTAG,-0.278 z-score
GACGGTTTCGGACTGGGGAGGTGCTAG,4.05 z-score
TCAACTTTCTTAATGCTACTGTGCTAG,1.62 z-score
TCAGCTATACCACTCTTACTGTGCTAG,-0.129 z-score
AGTTTTCTCATTCGTCATTTCGTGCTA,2.25 z-score
TCACCTTGGAAGTATGACACTGTGCTA,-0.331 z-score

# Series 2
# Target: Ras GTPase-activating protein-binding protein 1, full length (G3BP1, Homo sapiens, UniProt Q13283)
# Chain of UniProt Q13283 (whole entry, looked up): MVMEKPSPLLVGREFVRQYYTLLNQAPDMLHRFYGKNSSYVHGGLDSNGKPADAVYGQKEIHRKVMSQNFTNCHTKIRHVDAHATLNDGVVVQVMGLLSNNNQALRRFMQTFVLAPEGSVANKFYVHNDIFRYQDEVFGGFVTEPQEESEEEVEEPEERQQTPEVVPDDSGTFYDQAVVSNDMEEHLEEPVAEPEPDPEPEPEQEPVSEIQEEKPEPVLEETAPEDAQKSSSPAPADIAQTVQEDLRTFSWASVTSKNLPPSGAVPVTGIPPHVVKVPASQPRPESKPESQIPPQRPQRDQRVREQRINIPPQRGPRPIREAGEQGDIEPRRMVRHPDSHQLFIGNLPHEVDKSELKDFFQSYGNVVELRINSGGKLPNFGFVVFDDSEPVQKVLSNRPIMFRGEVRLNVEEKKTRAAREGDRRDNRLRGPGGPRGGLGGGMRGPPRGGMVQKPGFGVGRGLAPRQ
# Method: RNA Bind-n-Seq
# Form: RNA
# Medium: in vitro
# Tested at: 200 nM
# Notes: whole 134-nt RNA, ends assumed
# Added: 150 mM KCl
# Relative to: input library
# Direction: higher = stronger binding
Sequence,log2 enrichment
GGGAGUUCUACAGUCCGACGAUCCUCAAGUCCUGUGCUACACAUCGUAUGUACCGAAUCGGGAAGGGAAGGGAAGGAAAGUAUUAUGUUACGCCGUUCGGAUCUGCACUUCCAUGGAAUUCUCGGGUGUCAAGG,-0.189
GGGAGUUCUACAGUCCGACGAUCAAGUCCUGUGCUACACAUCGUAUGUACCGAAUCGGCCCCGGGCCCCGGGCCCCGGGGAAAGUAUUAUGUUACGCCGUUCGGAUCUGCACUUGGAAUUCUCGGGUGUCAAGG,-0.857
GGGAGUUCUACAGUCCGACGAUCCCUGUGCUACACAUCGUAUGUACCGAAUCGGGUUUUUUUGGGUUUUUUUGGUUUUUUUGGGAAAGUAUUAUGUUACGCCGUUCGGAUCUGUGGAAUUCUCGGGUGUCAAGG,-0.994
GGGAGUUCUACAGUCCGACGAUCUGGCUUUCACCCCCAACCAGUGACCAAAGACUUGACCACUCAAAGUCCAGCUCCCCAGAACACUGCUCGACAUGGACACCGGUGUGAUUGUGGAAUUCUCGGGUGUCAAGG,0.934
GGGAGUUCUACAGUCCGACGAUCUCAAGUCCUGUGCUACACAUCGUAUGUACCGAAUCGGGAAAGGAAAGGGAAAGGGAAAGUAUUAUGUUACGCCGUUCGGAUCUGCACUUCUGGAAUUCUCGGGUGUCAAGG,-0.619
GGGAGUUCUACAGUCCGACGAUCCACAGACAACAAGCACCCACACAGACACAGAGGGAAGGGGUUGGGAUGGGGACAGGGUGCACAGCAGGGCGGGGUAGGACCCCAGCCCCUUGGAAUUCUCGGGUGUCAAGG,1.92
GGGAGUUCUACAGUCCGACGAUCGUCCUGUGCUACACAUCGUAUGUACCGAAUCGGGGUUUUUUUGGGGUGGGGAAAGGGGAAAGUAUUAUGUUACGCCGUUCGGAUCUGCACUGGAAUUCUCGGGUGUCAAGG,0.421

# Other studies, line by line
# ABI1: ABI1, truncated, D143A, DHFR fusion (Arabidopsis thaliana)
# P1: PYL1, truncated, DHFR fusion (Arabidopsis thaliana); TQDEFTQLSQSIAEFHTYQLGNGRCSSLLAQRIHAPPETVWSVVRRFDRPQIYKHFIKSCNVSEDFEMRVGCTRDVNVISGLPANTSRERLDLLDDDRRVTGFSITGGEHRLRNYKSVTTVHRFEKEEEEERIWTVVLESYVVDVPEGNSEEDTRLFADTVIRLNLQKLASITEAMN; partner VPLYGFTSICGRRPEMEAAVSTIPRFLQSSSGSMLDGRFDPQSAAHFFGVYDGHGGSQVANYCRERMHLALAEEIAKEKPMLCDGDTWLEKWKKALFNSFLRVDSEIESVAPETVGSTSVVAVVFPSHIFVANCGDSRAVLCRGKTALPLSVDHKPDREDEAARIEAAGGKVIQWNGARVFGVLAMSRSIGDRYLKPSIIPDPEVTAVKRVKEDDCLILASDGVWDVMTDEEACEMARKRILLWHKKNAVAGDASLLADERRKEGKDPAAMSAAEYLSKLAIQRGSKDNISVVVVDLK
Substance,target,test,test system,conditions,how to read,endpoint,result
P1 S87H,ABI1,"DHFR PCA, deep sequencing",yeast,"methotrexate growth selection, single substitutions, added: (+)-ABA 0.032 µM","relative to: wild-type fitted maximum, higher = stronger binding",relative binding score,43.7%
"PhoQ, residues 284 288 289 292 302 303 SVHLDV","PhoP, residues 12 14 15 18 19 SEGLL (Escherichia coli, UniProt P23836)","Sort-seq, refers to: YFP reporter",E. coli,"PhoQ-PhoP variant library, added: 10 µM Mg2+","relative to: high Mg2+ state, higher = stronger signaling",fold induction,21.2
P1 T1K,ABI1,"DHFR PCA, deep sequencing",yeast,"methotrexate growth selection, single substitutions, added: (+)-ABA 0.032 µM","relative to: wild-type fitted maximum, higher = stronger binding",relative binding score,15.3%

# Repeated from above (series 1):
Sequence,log fluorescence
TCACCTTGGAAGTATGACACTGTGCTA,-0.331 z-score
